Assay results gathered from unrelated publications.
Parts stem from different laboratories: compare values within a part only.

Block 1
Target: Interferon regulatory factor 5, full length, phosphomimetic (IRF5, Homo sapiens, UniProt Q13568-2, residues 1-514, K96S/S451D/S453D/S456D/S462D)
Technique: protein-binding microarray
Form: double-stranded DNA, one strand shown
Medium: in vitro
Tested at: 250 nM
Notes: 60-bp whole probe
Together with: salmon DNA 0.4 mg/ml
Reference: random background probes
Reading: higher = stronger binding
Constant ends, left off below: GCCTAGCAC … GTCTTGATTCGCTTGACGCTGCTG
`GACGACATCGGGTTTCGAGACGTGCTA` has a log fluorescence of 1.63 z-score.
`TTAGATAGCAGACTGGATTAGTGCTAG` has a log fluorescence of -0.104 z-score.
`TCAGGCTTCATGTTGCTCACTGTGCTA` has a log fluorescence of -0.121 z-score.
With `TTCTATGACTACATTGCAGCGTGCTAG` the log fluorescence was 0.338 z-score.
`GACGATATCAGTTACGAGACGTGCTAG` gave a log fluorescence of 1.32 z-score.

Block 2
Target: Histone acetyltransferase KAT6A, winged helix 1, GST fusion (KAT6A, Homo sapiens, UniProt Q92794, residues 1-85)
Technique: protein binding microarray
Form: double-stranded DNA, one strand shown
Medium: in vitro
Tested at: not given
Notes: 8-mer, flanks averaged, mean of 2 arrays, mostly near background
Reference: not given
Reading: higher = stronger binding
Target sequence (chain): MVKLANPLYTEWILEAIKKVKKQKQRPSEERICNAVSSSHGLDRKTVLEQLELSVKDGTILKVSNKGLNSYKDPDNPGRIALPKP
`ATGTCCAC` has an E-score of -0.12.
`CCGAATTC` gave an E-score of 0.103.
`GTGACCGA` gave an E-score of 0.0854.
`GCTGCATA` gave an E-score of -0.118.

Block 3
Target: Prothrombin, mature alpha-thrombin (F2, Homo sapiens, UniProt P00734)
Technique: aptamer microarray, sandwich
Form: DNA with 2'F-ANA
Medium: in vitro
Tested at: 200 nM
Notes: whole 15-mer aptamer, many near background
Together with: Cy3 exosite-II aptamer, 400 nM
Reading: higher = stronger binding
Sequence: GGTTGGTGTGGTTGG
Under “mean fluorescence intensity”, `2'F-ANA at 1 4 5 7 9 12 13` is recorded as 67.8 a.u.
Under “mean fluorescence intensity”, `2'F-ANA at 3 4 5 6 7 8 9 10 11 12 13 15` is recorded as 55.9 a.u.
Under “mean fluorescence intensity”, `2'F-ANA at 3 8 10 14` is recorded as 524 a.u.
`2'F-ANA at 1 2 3 7 11 12 13 14 15`: “mean fluorescence intensity” 89.5 a.u.
For `2'F-ANA at 2 6 7 8 11 13 15`, “mean fluorescence intensity” read 282 a.u.

Other studies, line by line
With `PhoQ, residues 284 288 289 292 302 303 ASASEQ` the fold induction was 1.31 (PhoP, residues 12 14 15 18 19 VHSCL (Escherichia coli, UniProt P23836); Sort-seq, measured: YFP reporter; E. coli; PhoQ-PhoP variant library, together with: 10 µM Mg2+; reference: high Mg2+ state, higher = stronger signaling).

For quick reference, copied from above (block 1):
With `TTCTATGACTACATTGCAGCGTGCTAG` the log fluorescence was 0.338 z-score.
